{"data": "Measurements of several laboratories", "note": "Each numbered part is a random draw from the data of one study; scales do not carry over between parts. Changes are numbered by the printed parent chain."}
{"data": "Series 1", "target": "RING finger protein unkempt homolog, zinc fingers 1-6, SBP tag (UNK, Homo sapiens, UniProt Q9C0B0, residues 30-357)", "technique": "RNA Bind-n-Seq", "molecule type": "RNA", "medium": "in vitro", "concentration": "100 nM", "setting": "RNA with constant flanks, vertebrate orthologous sites, ends assumed", "reference": "input RNA pool", "reading": "higher = stronger binding", "shared flanks, not repeated": "GGGAGUUCUACAGUCCGACGAUC … CAACAGAGGAUUGAGCAUCA", "chain of UniProt Q9C0B0 (30-357, looked up)": "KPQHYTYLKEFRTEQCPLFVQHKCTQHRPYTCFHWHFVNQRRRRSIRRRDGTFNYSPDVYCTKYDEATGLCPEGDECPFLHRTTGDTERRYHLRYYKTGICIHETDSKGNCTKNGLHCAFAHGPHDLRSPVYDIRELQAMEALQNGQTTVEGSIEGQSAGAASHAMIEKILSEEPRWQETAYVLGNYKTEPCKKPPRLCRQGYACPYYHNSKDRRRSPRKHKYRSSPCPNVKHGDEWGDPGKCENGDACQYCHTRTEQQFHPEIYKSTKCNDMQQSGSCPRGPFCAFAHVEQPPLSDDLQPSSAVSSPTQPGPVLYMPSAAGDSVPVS"}
{"Oligonucleotide": "AAUCCCAUGUAGGUUUUUGUAAGCAAAAAUCUUACUGUACUUGAAUGUGUCCUGUUUUGUUAGCACACCUAGAUUUGCUGUAACUGUACUCGUGUCCCAGUAUCUAAUUUCUUUCUAUGA", "bound/input enrichment [ratio]": 0.469}
{"Oligonucleotide": "CUGAAGCUUUGUGUUUGGCUGCACCUACAUAAGCUGCUACAAAUAGAAUAAAGAAUUUCAUAGCCUGUAUCUAUCAUUUAGAUGCAUGGAAAAUGGGCUUUGCACACAGUGGGUUUGGAG", "bound/input enrichment [ratio]": 1.87}
{"Oligonucleotide": "GGAGGGAUUUGAGUAUUAGCAUUUAAAAAAAAUUUUUGUCUUUUAUCCCUACCUAAUACUUAGCCUAAAAAUUUCAGUUCUUUGAACUGAUAAUUCUGAUUUUCAAAUUAUUGUUGCUGG", "bound/input enrichment [ratio]": 0.641}
{"Oligonucleotide": "GACUGGAUGCCGUAUAUACCGUACCCAAGGCAGUGACUUCCACUUUCUACACGUUGUUAGUUUAAAGUCAUCUCUUAUUUCAGCGUCUAGACUGGAUUGUUAGUGCUACUACUCUUUGUA", "bound/input enrichment [ratio]": 0.554}
{"Oligonucleotide": "AGCGGUUAGGGUGGGCCGUUCCUCUGCAUUUCCCAUGAGGAGGAAAGCCCAAAUCGAUGACACACAUUUCACACAUCUGAUGAUGAUCUUUUUGUUUUCUGCUUUUACGUAUGCAUCAAA", "bound/input enrichment [ratio]": 0.46}
{"Oligonucleotide": "AGAAAAUUUUAACCAAGAAUCUGAAGGUAGAAAUACAGGACUGUGGUUGUCUUCCUCAUUUAGAAAUAGAUGUACUCCCUUGUUCUCUAGAAGGAGGCGAGAAGGAAGAGAUGAAUCUUC", "bound/input enrichment [ratio]": 0.706}
{"Oligonucleotide": "GUUAGGUCAUGACCCUUACAGGCUAGGUCAUGACGCCUACAGGUUAGGGCAGGACCCCUAUAGAUUAGGCCAUGAUCCCUACAGACUAACUCCUGAUCCCUAUAGGAUGUCACCUAGACC", "bound/input enrichment [ratio]": 0.758}
{"Oligonucleotide": "UCAGUCUUCCACUUACGGUUGGCCUCAGAUCUAUAGGAUUUAUGACAAAUGUAUUAUAUCUAGUUAAGUUGAGUUUAAUAUUUUUUUAUUAGCCUGUAAAUAAAGAUGGCAUCUUCUACA", "bound/input enrichment [ratio]": 0.719}
{"Oligonucleotide": "UAAUACUUAAGCCAACAACAGUUCUAAAAUGUUAUUUAUUUGUGUCUGUAAGUUUGUACAUAGUAUUACCAACCUCAUAUUGUUGAUUUUUUUUUUAUCAGUUUUGAGUUUUGUUUUGUU", "bound/input enrichment [ratio]": 0.44}
{"data": "Series 2", "target": "Centromere-binding protein 1, full length, His-tagged (CBF1, Saccharomyces cerevisiae, UniProt P17106, residues 1-351)", "technique": "competition protein-binding microarray", "molecule type": "double-stranded DNA, one strand shown", "medium": "in vitro", "concentration": "2 µM", "setting": "whole 60-bp probe, lowest competitor level", "together with": "Pho4 competitor, 0.05 µM", "reading": "higher = stronger binding", "shared flanks, not repeated": "… GTCTTGATTCGCTTGACGCTGCTG", "chain of UniProt P17106 (whole entry, looked up)": "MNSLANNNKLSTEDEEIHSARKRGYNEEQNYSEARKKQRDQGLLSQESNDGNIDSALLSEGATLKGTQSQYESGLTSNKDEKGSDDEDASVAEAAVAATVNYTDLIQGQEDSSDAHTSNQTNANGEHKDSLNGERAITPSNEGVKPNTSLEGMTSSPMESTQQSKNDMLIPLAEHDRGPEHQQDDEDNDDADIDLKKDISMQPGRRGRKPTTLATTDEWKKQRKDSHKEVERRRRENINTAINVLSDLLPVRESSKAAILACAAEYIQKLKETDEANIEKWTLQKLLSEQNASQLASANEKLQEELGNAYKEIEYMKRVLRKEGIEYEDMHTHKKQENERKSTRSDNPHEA"}
{"Oligonucleotide": "TGCGCAACAACTTGCGGCGTGGGTGTATGTCTAGAA", "fluorescence intensity": "64.6 a.u."}
{"Oligonucleotide": "TTATGTTCAACACGACATCCTAACAAATACTACAGC", "fluorescence intensity": "91 a.u."}
{"Oligonucleotide": "ATCATTTTTTACCATCACGCTTAACCTCGATATCTC", "fluorescence intensity": "168 a.u."}
{"Oligonucleotide": "GTCAGAAAGCCGGGTAAGGTGTGCCAGCGAGAGTAA", "fluorescence intensity": "62.2 a.u."}
{"Oligonucleotide": "TAATAATTCTTGTTCCTCGTGGCCGAATGGTTACGG", "fluorescence intensity": "111 a.u."}
{"Oligonucleotide": "GTCTTGTCTCATTGCGTCGTGGGTGTCCCCACTTCA", "fluorescence intensity": "71.1 a.u."}
{"Oligonucleotide": "CTTCTGTAAATTTTTCACGTGTTCTGACGCGCCCCG", "fluorescence intensity": "1270 a.u."}
{"Oligonucleotide": "CCACAATCTGATGCTTTCGTGATGGATCCTCCAATT", "fluorescence intensity": "60 a.u."}
{"Oligonucleotide": "CGGGAACGCAAATGCATCGTGGTGAAATGATAAATC", "fluorescence intensity": "84.4 a.u."}
{"Oligonucleotide": "GAAACAGCCGCTTGCCACGTTGCTCGATAAGTTCTT", "fluorescence intensity": "70.2 a.u."}
{"Oligonucleotide": "CCGGTATCTTTCCAAATCGTGCCGATGCTTGGAACC", "fluorescence intensity": "61.6 a.u."}
{"Oligonucleotide": "AGTCATTGCGTTACCCACGTGGTCGTTATTGTCCAT", "fluorescence intensity": "1510 a.u."}
{"Oligonucleotide": "AGACATAGGGAGATGCATGTGTAGCGGATCCGCCTG", "fluorescence intensity": "71.7 a.u."}
{"Oligonucleotide": "CTTCTGTAAATTTGTCGGGTGGGTGGACGCGCCCCG", "fluorescence intensity": "69.3 a.u."}
{"Oligonucleotide": "AACATAAGACTAGCTCGCGTGGCCGAATGGCAACGC", "fluorescence intensity": "58.3 a.u."}
{"Oligonucleotide": "AGCAATACCTTTCGGCACGTTCTTGAAAATTCCACA", "fluorescence intensity": "194 a.u."}
{"Oligonucleotide": "CATACCCAACCTTGGATGGTGGGTGAAGATATTTGT", "fluorescence intensity": "63.6 a.u."}
{"data": "Series 3", "target": "ABI1, truncated, D143A, DHFR fusion (Arabidopsis thaliana)", "technique": "DHFR PCA, deep sequencing", "medium": "yeast", "setting": "methotrexate growth selection, single substitutions", "together with": "(+)-ABA 2500 µM", "reference": "wild-type fitted maximum", "reading": "higher = stronger binding", "parent": "PYL1, truncated, DHFR fusion (Arabidopsis thaliana); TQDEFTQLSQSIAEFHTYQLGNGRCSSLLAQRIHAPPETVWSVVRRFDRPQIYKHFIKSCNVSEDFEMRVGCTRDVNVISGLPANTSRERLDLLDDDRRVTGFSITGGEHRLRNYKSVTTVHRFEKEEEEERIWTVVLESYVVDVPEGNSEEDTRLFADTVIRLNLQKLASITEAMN"}
{"Variant": "P50W", "relative binding score": "-10.7%"}
{"Variant": "E147G", "relative binding score": "94.7%"}
{"Variant": "M176A", "relative binding score": "98.2%"}
{"Variant": "H16D", "relative binding score": "41.7%"}
{"Variant": "F5C", "relative binding score": "107%"}
{"Variant": "N22F", "relative binding score": "95.3%"}
{"Variant": "V78G", "relative binding score": "42.7%"}
{"Variant": "T106Q", "relative binding score": "102%"}
{"Variant": "N77A", "relative binding score": "98.5%"}
{"Variant": "H122T", "relative binding score": "87.2%"}
{"Variant": "M176I", "relative binding score": "96.8%"}
{"Variant": "V143G", "relative binding score": "51.7%"}
{"Variant": "P83T", "relative binding score": "44.1%"}
{"Variant": "E125Y", "relative binding score": "107%"}
{"data": "Series 4", "target": "RNA binding protein fox-1 homolog 2, RRM domain, GST-SBP tag (RBFOX2, Homo sapiens, UniProt O43251-10, residues 100-194)", "technique": "RNA Bind-n-Seq", "molecule type": "RNA", "medium": "in vitro", "concentration": "365 nM", "setting": "natural RNA segment, single round, ends assumed", "reference": "no-protein control", "reading": "higher = stronger binding", "shared flanks, not repeated": "GGGAGUUCUACAGUCCGACGAUC … UGGAAUUCUCGGGUGCCAA", "Construct (chain)": "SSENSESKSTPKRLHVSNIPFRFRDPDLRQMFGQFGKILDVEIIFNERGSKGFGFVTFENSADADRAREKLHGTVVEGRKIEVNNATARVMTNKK"}
{"Oligonucleotide": "GGUGUGCGUCUGGGCACGUCCUGCACACACAAUGCAAGUCCUGGCCUCCGCGCCCGCCCGCCCACGCGAGCCGUACCCGCCGCCAACUCUGUUAUUUAUGGUGUGACCCC", "RBNS enrichment (R)": 0.23}
{"Oligonucleotide": "UUAAAAGAAAGCAGUAUAGAUGUCUUACCAUGAAAUACAUUACUCUAGGCUAAAAUUUCAACUGUUUUAGUCAUAGAUUUUUAGCAUCUUUGUUAGAUCAGCAUAUAAUU", "RBNS enrichment (R)": 0.44}
{"Oligonucleotide": "UGUUUAUCCUCGGCUGCUGUCUUCCCAGCAGGCCCCAGGCAAGGAGGCUUCCCAUUGCUGCUGCUACCGGUUCUCCACAGAUCCCUGUGGUCCGCCAUCGCCGACACACA", "RBNS enrichment (R)": 0.224}
{"Oligonucleotide": "UAAAUCUGGCCCUUGGAACUACAACCCAGAGGAAGUUCGUGCUGUUCUGGAAAAGCUCCACAGUUAAUCUGGACAGAUACCUCAAUUCUAGGUGACCAACGGGAGGGCUU", "RBNS enrichment (R)": 0.264}
{"Oligonucleotide": "UACAAUCAUUUAUAAUGAAUCAAUGUUCCAGUUAGCUUUAAAAGGUAUACGGUGCUAAUUAGUAAAAUAUUGAAGGCAAUAUUUUACUGCUAGCUUGCAAAGUUAUGAGA", "RBNS enrichment (R)": 0.486}
{"Oligonucleotide": "CCUGUUCAUUCCAAUCUUCUAAUUACAGUGGUUCCUAUCUCAGGGAUACUGGACUUUCUGACGCAGAUGAACAAUUAAGGGGAAAAGCUUCCCUUUUCCCUCUGUGGCAG", "RBNS enrichment (R)": 0.176}
{"Oligonucleotide": "GUAGUCUUCCAAUUGCAGGAGAUCAGCCCUACAGUGUAUUCUACGUGAACCAACAGGGCCUGGCCUUCACUCCUCCAGGCCACAAUGCCCUGGGGUCAAGGGAAAGGAAC", "RBNS enrichment (R)": 0.407}
{"Oligonucleotide": "UUUUAUAAAUGCUUAUUUAUGUUAUAAAAUGGAGAUCAGAAAAAAAUUCUUUUUGCACUUUGGCCUAUCCAGUAUCUUAUUUAUUCUCUAGAUAAGCUAGGAUAUUAAUC", "RBNS enrichment (R)": 0.607}
{"Oligonucleotide": "GCCCCGAGCUCGGGGAAGGGGUUUUCCCUUCCUCUCUGACCCAGAUCUGCGCGCGGCCUAGCCCGGGCCUCAUUUCUUAUCCCCGCCAAGGGUUUCCUCUCAGUCAUUUG", "RBNS enrichment (R)": 0.186}
{"Oligonucleotide": "ACCUUUCUUUAGUGAAUGUCAAAUCAGAAACAAAUUGUAGACCUAGGAACUGUAUUAAAGUUUAGUUUACUAUAGAUUGGUCCCCACUGAAGACUUUCUCCACUCUGACC", "RBNS enrichment (R)": 0.426}
{"Oligonucleotide": "AGAACUGCUUUCCUAUAUUUAUUUCUUGAUAUUUGAGUAAGGGAUCUGAAUAAACAACCCCAGCCCACUUAACUAUUCACAUCUUAGAGGCAAAUUCUUGCUAUGUAACU", "RBNS enrichment (R)": 0.678}
{"Oligonucleotide": "AUUUCAGACAUCUGCAUUUUUAUUGAACAGUUGACUGUAUCUGACCCAUCAUACUACUAUACUUCUGGGUUGAACAGAAUUAUUUAUGCAGAAUAAUUCAAUUGAAUAUC", "RBNS enrichment (R)": 0.568}
